Assay results collected from several papers.
Numbered parts are unrelated; each lists some results of a single study.
Sequence of UniProt P49761 (whole entry, looked up): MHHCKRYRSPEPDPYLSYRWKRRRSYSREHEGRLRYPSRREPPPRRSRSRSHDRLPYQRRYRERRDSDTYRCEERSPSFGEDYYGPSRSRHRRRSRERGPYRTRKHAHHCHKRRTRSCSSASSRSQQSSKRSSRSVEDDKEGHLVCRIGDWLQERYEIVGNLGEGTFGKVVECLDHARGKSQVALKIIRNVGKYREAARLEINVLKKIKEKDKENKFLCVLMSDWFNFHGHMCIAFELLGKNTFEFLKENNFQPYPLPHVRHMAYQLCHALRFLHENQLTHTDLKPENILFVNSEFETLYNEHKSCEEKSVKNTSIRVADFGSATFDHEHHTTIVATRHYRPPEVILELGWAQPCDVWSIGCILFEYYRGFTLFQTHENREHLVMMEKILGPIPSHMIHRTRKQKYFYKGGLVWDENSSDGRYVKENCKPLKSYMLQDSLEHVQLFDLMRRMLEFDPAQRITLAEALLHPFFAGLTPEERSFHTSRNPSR

Block 1
Target: Tyrosine-protein kinase ZAP-70 (ZAP70, Homo sapiens, UniProt P43403)
Read-out: enzyme activity
Mode: inhibitor
Concentration: 0.5 µM
Reference: control
Endpoint: remaining activity
Target sequence (P43403 1-619): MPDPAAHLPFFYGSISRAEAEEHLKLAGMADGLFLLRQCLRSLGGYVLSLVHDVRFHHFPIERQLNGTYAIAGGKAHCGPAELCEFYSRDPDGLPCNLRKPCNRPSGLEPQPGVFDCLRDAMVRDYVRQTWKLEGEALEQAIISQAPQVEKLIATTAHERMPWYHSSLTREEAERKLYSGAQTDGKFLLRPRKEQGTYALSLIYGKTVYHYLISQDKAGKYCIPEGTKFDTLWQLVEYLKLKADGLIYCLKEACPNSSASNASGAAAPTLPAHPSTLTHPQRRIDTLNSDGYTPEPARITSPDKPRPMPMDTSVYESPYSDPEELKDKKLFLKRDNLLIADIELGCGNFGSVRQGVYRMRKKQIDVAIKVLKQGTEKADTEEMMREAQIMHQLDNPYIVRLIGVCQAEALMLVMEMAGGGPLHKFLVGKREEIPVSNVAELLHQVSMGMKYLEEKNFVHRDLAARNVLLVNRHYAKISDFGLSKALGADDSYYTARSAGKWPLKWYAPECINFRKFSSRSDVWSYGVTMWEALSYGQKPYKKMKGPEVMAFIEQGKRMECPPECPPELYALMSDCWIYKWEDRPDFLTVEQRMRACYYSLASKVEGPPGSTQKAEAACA
CC(C)(C)c1nc2c3cc[nH]c(=O)c3c3cc(F)ccc3c2[nH]1: 88.9%
O=C1c2ccccc2-c2nc3nnnn3nc21: 68.2%
Clc1ccc(Nc2nnc(Cc3ccncc3)c3ccccc23)cc1: 96.6%
O=C1NC(=O)/C(=C/c2ccc3c(c2)OC(F)(F)O3)S1: 99.2%
NC(=O)c1ccc(-c2nc(-c3ccc4c(c3)OCCO4)c(-c3ccccn3)[nH]2)cc1: 107%
N#C/C(=C(/N)SC1C=CC=CC1)c1cccc(C(O)c2ccncc2)c1 (stereo not drawn): 101%
CCCCc1c(-c2ccc(O)cc2)[nH]c2nccnc12: 94.4%

Block 2
Target: Histone acetyltransferase KAT6A, both winged helices, GST fusion (KAT6A, Homo sapiens, UniProt Q92794, residues 1-181)
Technique: protein binding microarray
Form: double-stranded DNA, one strand shown
Medium: in vitro
Concentration: not given
Setting: 8-mer, flanks averaged, mean of 2 arrays, mostly near background
Reference: not given
Reading: higher = stronger binding
Endpoint: E-score
Construct (chain): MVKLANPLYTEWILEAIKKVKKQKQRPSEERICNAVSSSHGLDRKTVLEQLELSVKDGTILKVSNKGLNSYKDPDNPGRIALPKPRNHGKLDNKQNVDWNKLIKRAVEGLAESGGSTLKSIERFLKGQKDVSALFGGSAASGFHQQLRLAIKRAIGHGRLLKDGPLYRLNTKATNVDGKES
CAAACGGG: 0.268
GCATGCGA: 0.125
CCGCCAGA: -0.0197
CCTAACAC: -0.106
CTTCAGTA: 0.0265
CCAGGAGG: -0.106
GAATGGAC: -0.148
AGACAGAG: -0.15

Other studies, line by line
CO[C@H]1CC[C@H](CNc2ccc(S(=O)(=O)NC(=O)c3ccc(N4CCN(CC5=C(c6ccc(Cl)cc6)CC(C)(C)CC5)CC4)cc3Oc3cnc4[nH]ccc4c3)cc2[N+](=O)[O-])CC1 — remaining binding (CLK3 (Homo sapiens, UniProt P49761); cell-free assay, competition with immobilised ligand; 1 µM): 90%
PhoQ, residues 284 288 289 292 302 303 ALVSVA — fold induction (PhoP, residues 12 14 15 18 19 NHFIF (Escherichia coli, UniProt P23836); Sort-seq, measured: YFP reporter; E. coli; PhoQ-PhoP variant library, added: 10 µM Mg2+; reference: high Mg2+ state, higher = stronger signaling): 5.33
CN(C)C(=O)/C(C#N)=C/c1ccc(-c2nc3cnc4c(ccn4C)c3n2C2CCCCC2)o1 — viability (colorectal tumour organoids; 0.1 µM; reference: DMSO): 110%

Repeated from above (block 2):
CCAGGAGG: -0.106
GAATGGAC: -0.148
AGACAGAG: -0.15
